Measurements collected from several papers.
Compare with care: the assays were run in different laboratories. Numbers after ± are the reported error.

SMILES | test | test system | setting | how to read | quantity | value
CS(=O)(=O)n1cc2c(n1)CN([C@H]1CO[C@H](c3cc(F)ccc3F)[C@@H](N)C1)C2 |  | healthy male human, plasma | oral, 1.5 mg, fasted single dose |  | AUC(0-last) | 1.3 µM·h
CC(C)(O)CNc1nc(Nc2ccnc(C(F)(F)F)c2)nc(-c2cccc(C(F)(F)F)n2)n1 |  | human patients | oral, 100 mg once daily, cycle 1 days 14 and 21, together with: induction chemotherapy |  | mean Cmax | 8820 ng/mL
CC[C@H]1OC(=O)[C@H](C)[C@@H](O[C@H]2C[C@@](C)(OC)[C@@H](O)[C@H](C)O2)[C@H](C)[C@@H](O[C@@H]2O[C@H](C)C[C@H](N(C)C)[C@H]2O)[C@](C)(O)C[C@@H](C)C(=O)[C@H](C)[C@@H](O)[C@]1(C)O | cytochrome c release, ELISA | BALB/cByJ female mouse liver mitochondria | 30 min | relative to: alamethicin maximal release | EC20 | > 400 µM
COc1cc2c(Nc3ccc(Br)cc3F)ncnc2cc1OCC1CCN(C)CC1 |  | male FVB mice, brain | intravenous, 5 mg/kg |  | elimination rate constant | 0.42 h⁻¹
CN1C(C(=O)Nc2ccccn2)=C(O)c2ccccc2S1(=O)=O | cytochrome c release, ELISA | BALB/cByJ female mouse liver mitochondria | 30 min | relative to: alamethicin maximal release | EC20 | > 200 µM
CCCC(CCC)C(=O)O | regression tree, refers to: hearing loss | human, plasma | intravenous, dose not given |  | AUCinf breakpoint | > 3870 µg·h/mL
CS(=O)(=O)c1ccc(-c2cnc(N)c(-c3ccc(C(F)(F)F)nc3)c2)cc1 |  | pregnant female Sprague-Dawley rat, plasma | oral, 10 mg/kg/day, gestation day 17 |  | AUC(0-t) | 39.2 µg·h/mL
O=C([O-])CN(CCN(CC(=O)[O-])CC(=O)O)CCN(CC(=O)[O-])CC(=O)O.[Gd+3] |  | phosphate buffer | pH 7.4, 37 °C, 60 MHz, 1.5 T |  | relaxivity r1 | 3.8 mM⁻¹ s⁻¹
CC(C)(NC(=O)O[C@@H]1CN2CCC1CC2)c1csc(-c2ccc(F)cc2)n1 |  | CD-1 mouse, plasma | intravenous |  | Vd | 6.67 L/kg
CC(C)[C@H](NC(=O)[C@@H]1CCCN1C(=O)[C@H](CCCNC(=N)N)NC(=O)[C@H](CS)NC(=O)[C@H](Cc1c[nH]c2ccccc12)NC(=O)[C@H](CCCNC(=N)N)NC(=O)[C@@H](Cc1ccccc1)NC(=O)[C@H](Cc1c[nH]cn1)NC(=O)[C@H](CCC(=O)O)NC(=O)[C@H](CS)NC(=O)[C@H](CS)NC(=O)[C@H](CCCCN)NC(=O)[C@@H]1CC(=O)N[C@@H](CCCNC(=N)N)C(=O)N[C@@H](C(C)C)C(=O)N[C@@H](CC(=O)O)C(=O)N[C@H](Cc2ccc(O)cc2)C(=O)N1)C(N)=O [technetium-99m labelled] |  | female C57 mouse, B16/F1 melanoma, tumour | intravenous, dose not given, 2 h, together with: NDP-MSH 10 µg co-injected |  | tissue uptake | 1.51 ± 0.6 %ID/g
O=C(c1cccnc1-c1ccncc1)N1CCC(O)(Cc2ccccc2)CC1 |  | healthy human, plasma | oral, 600 mg once daily, day 1, arithmetic mean |  | Vz/F | 1320 L
Cc1cccc(C)c1OCC(=O)N[C@@H](Cc1ccccc1)[C@@H](O)C[C@H](Cc1ccccc1)NC(=O)[C@H](C(C)C)N1CCCNC1=O | USP paddle apparatus | Tween in phosphate buffer | concentration not given, 60 min, pH 6.8, 37 °C |  | dissolution efficiency | 25%
Cc1nc2cccc(OCC(C)(C)C(=O)NC(C)C)c2c(N)c1C(=O)O |  | Sprague-Dawley rat both sexes, plasma | dietary, 30 mg/kg/day, day 90 |  | Cmax | 39 ng/mL
CNc1cc(-c2csc(N(C)C(=O)c3ccc(F)cc3)n2)ncn1 [carbon-11 labelled] |  | 1-octanol/sodium phosphate buffer | pH 7.4, corrected for radioligand instability |  | logD | 3.27 ± 0.03
Cc1nc(Nc2ncc(C(=O)Nc3c(C)cccc3Cl)s2)cc(N2CCN(CCO)CC2)n1 |  | Sprague-Dawley rat, female, plasma | intraperitoneal, 5 mg/kg, together with: rosiglitazone co-dosed |  | MRT(0-24 h) | 5.06 ± 0.94 h
Cc1c(C)c2c(c(C)c1O)CCC(C)(COc1ccc(CC3SC(=O)NC3=O)cc1)O2 (stereo not drawn) | mitochondrial swelling | BALB/cByJ female mouse liver mitochondria | 30 min, together with: succinate + rotenone | relative to: CaCl2 maximal swelling | EC20 | > 200 µM
COc1cccc(N2CCN(C3=Nc4c(F)cccc4[C@H](CC(=O)O)N3c3cc(C(F)(F)F)ccc3OC)CC2)c1 | UHPLC-MS/MS | healthy women, plasma | intravenous infusion, 480 mg single dose, 60 min infusion, HPβCD formulation |  | AUC(0-last) | 105 ± 21.3 µg·h/mL
C[C@H](Oc1ccc(-c2nc(-c3ccc4[nH]cnc4c3)no2)cc1C(F)(F)F)C(F)(F)F |  | cynomolgus monkey, aneurysm model, plasma | 0.1 mg/kg once daily, 4 h post-dose, 12 months dosing |  | plasma concentration | 20 ± 1.3 nM

SMILES | test | test system | setting | how to read | quantity | value
NC(=O)N1c2ccccc2C=Cc2ccccc21 | mitochondrial swelling | BALB/cByJ female mouse liver mitochondria | 30 min, together with: succinate + rotenone | relative to: CaCl2 maximal swelling | EC20 | > 200 µM
CC[C@H](C)[C@H](NC(=O)[C@H](CC(N)=O)NC(=O)[C@H](C)NC(=O)[C@H](CCCNC(=N)N)NC(=O)[C@H](CCCNC(=N)N)NC(=O)[C@H](CC(N)=O)NC(=O)[C@H](CCCNC(=N)N)NC(=O)[C@H](CCCNC(=N)N)NC(=O)[C@H](C)NC(=O)[C@@H](NC(=O)[C@H](CC(C)C)NC(=O)[C@@H](NC(=O)[C@@H](NC(=O)[C@H](CS)NC(=O)[C@H](CCCCN)NC(=O)[C@@H](N)CCCNC(=N)N)C(C)C)[C@@H](C)CC)C(C)C)C(=O)N[C@H](C(=O)N[C@H](C(=O)N[C@@H](CC(C)C)C(=O)N[C@@H](CS)C(=O)N[C@@H](CCCNC(=N)N)C(=O)O)[C@@H](C)CC)C(C)C | LC-MS | PBS | 0.1 mg/mL |  | single disulfide form | 50%
CO/N=C1\C[C@]2(C[C@@H]3C[C@@H](C/C=C(\C)C[C@@H](C)/C=C/C=C4\CO[C@@H]5[C@H](O)C(C)=C[C@@H](C(=O)O3)[C@]45O)O2)O[C@H](/C(C)=C/C(C)C)[C@H]1C | HPLC, non-compartmental | Corriedale lambs, parasitized, plasma | oral, 0.2 mg/kg, together with: closantel 10 mg/kg oral |  | MRT | 70.3 ± 25 h
CCCC[C@@H]1NC(=O)[C@@H](NC(=O)[C@H](CCC(=O)O)NC(=O)CNC(=O)CN2CCN(CC(=O)O)CCN(CC(=O)O)CCN(CC(=O)O)CC2)CCCCNC(=O)C[C@@H](C(N)=O)NC(=O)[C@H](C(C)C)NC(=O)[C@@H]2CCCN2C(=O)[C@H](CCCNC(=N)N)NC(=O)CNC(=O)[C@H](Cc2c[nH]c3ccccc23)NC(=O)[C@H](CCCNC(=N)N)NC(=O)[C@@H](Cc2ccccc2)NC(=O)[C@H](Cc2c[nH]cn2)NC(=O)[C@H](CCC(=O)O)NC1=O [indium-111 labelled] |  | normal C57 mice, muscle | intravenous, 0.037 MBq, 2 h |  | tissue uptake | 0.03 ± 0.03 %ID/g
C#C[C@]1(CO)O[C@@H](n2cnc3c(N)nc(F)nc32)C[C@@H]1O |  | human, plasma | oral, 30 mg, single dose, fed |  | AUC(0-t) | 3.91 µM·h
C[C@]12C=CC(=O)C=C1CC[C@@H]1[C@@H]2[C@@H](O)C[C@@]2(C)[C@H]1C[C@H]1O[C@@H](C3CCCCC3)O[C@]12C(=O)CO |  | children with asthma, serum | inhaled, 160 µg ciclesonide, day 7, geometric LS mean, per-protocol, spacer |  | AUC(0-tau) | 0.000601 µg·h/mL
O=c1ccc2ccccc2o1 | mitochondrial swelling | BALB/cByJ female mouse liver mitochondria | 30 min, together with: succinate + rotenone | relative to: CaCl2 maximal swelling | EC20 | > 200 µM
NCCCC(=O)O | LC-MS | Sprague-Dawley rat, male, anaesthetised, brain homogenate supernatant | intravenous infusion, 50 mg/kg/h, steady state |  | brain concentration | 272 ± 15.2 ng/mL
CC(=O)Oc1ccc(C(c2ccc(OC(C)=O)cc2)c2ccccn2)cc1 | mitochondrial swelling | BALB/cByJ female mouse liver mitochondria | 30 min, together with: succinate + rotenone | relative to: CaCl2 maximal swelling | EC20 | > 400 µM
Cc1nc(Nc2ncc(C(=O)Nc3c(C)cccc3Cl)s2)cc(N2CCN(CCO)CC2)n1 |  | male C57BL/6 mouse wild type, plasma | intravenous, 10 mg/kg |  | AUC(0-inf) | 3.36 ± 0.314 µg·h/mL
COc1c(O)cc2oc3cc(O)cc(O)c3c(=O)c2c1C/C=C(\C)CCC=C(C)C | UHPLC, non-compartmental | mice, plasma | oral, 700 mg/kg, virgin coconut oil suspension |  | AUC(0-inf) | 561 ± 78.2 µg·h/mL
CCCC[C@H](NC(=O)CN1CCN(CC(=O)O)CCN(CC(=O)O)CCN(CC(=O)O)CC1)C(=O)N[C@H]1CC(=O)NCCCC[C@@H](C(N)=O)NC(=O)[C@H](Cc2c[nH]c3ccccc23)NC(=O)[C@H](CCCNC(=N)N)NC(=O)[C@@H](Cc2ccccc2)NC(=O)[C@H](Cc2c[nH]cn2)NC1=O [indium-111 labelled] |  | B16/F1 melanoma C57 mice, tumour | 4 h | relative to: 99mTc(CO)3-pz-βAla-Nle-cyclo[Asp-His-D-Phe-Arg-Trp-Lys]-NH2 | tumour uptake ratio | 1.5
CC(=O)N[C@@H](Cc1ccccc1)C(=O)N[C@H]1CCCNC(=O)[C@H](CCCNC(=N)N)NC(=O)[C@H](Cc2c[nH]c3ccccc23)NC(=O)[C@@H](CC2CCCCC2)NC(=O)[C@@H]2CCCN2C1=O |  | C57BL/6J mice, spinal cord | subcutaneous, 1 mg/kg |  | elimination half-life | 0.37 h
CC(=O)N[C@H](CSSC[C@H](N)C(=O)O)C(=O)N[C@H](C)C(=O)N[C@H](CCCNC(=N)N)C(=O)N[C@H](CCCNC(=N)N)C(=O)N[C@H](CCCNC(=N)N)C(=O)N[C@H](C)C(=O)N[C@H](CCCNC(=N)N)C(N)=O |  | human whole blood | 5 µM, 3 h, 37 °C | relative to: products | SAPC conjugate share | ~60%
C[C@]12CC[C@@H]3c4ccc(O)cc4CC[C@H]3[C@@H]1C[C@@H](O)[C@@H]2O | GC-MS | breast cancer women on NSAI, serum | vaginal, 0.03 mg, 1 h, day 0 |  | median serum concentration | 0.0141 ng/mL
CCCCNC(=O)CCC(C(=O)[O-])N1CCN(CC(=O)[O-])CCN(CC(=O)[O-])CCN(CC(=O)[O-])CC1.[67Ga+3] (stereo not drawn) | RP-TLC | murine plasma | 24 h, 37 °C, 5% CO2 |  | intact radiolabelled complex | 82.2 ± 0.2%
Oc1ccc2c3c(cnc2c1)-c1ccc(C(F)(F)F)cc1O[C@@H]3c1ccc(OCCN2CC(CF)C2)cc1 |  | human, healthy female | intravenous, 45 µg, together with: oral 400 mg tablets |  | plasma radioactivity half-life | 74.5 h
CCCCC1(CCCC)CN(c2ccccc2)c2cc(SC)c(OCC(=O)N[C@@H](C(=O)NCC(=O)O)c3ccccc3)cc2S(=O)(=O)C1 |  | human, plasma | oral, 15 mg, no breakfast |  | AUC(0-t) | 0.008 µg·h/mL

Repeated from above:
SMILES | test | test system | setting | how to read | quantity | value
C[C@H](Oc1ccc(-c2nc(-c3ccc4[nH]cnc4c3)no2)cc1C(F)(F)F)C(F)(F)F |  | cynomolgus monkey, aneurysm model, plasma | 0.1 mg/kg once daily, 4 h post-dose, 12 months dosing |  | plasma concentration | 20 ± 1.3 nM
C[C@]12CC[C@@H]3c4ccc(O)cc4CC[C@H]3[C@@H]1C[C@@H](O)[C@@H]2O | GC-MS | breast cancer women on NSAI, serum | vaginal, 0.03 mg, 1 h, day 0 |  | median serum concentration | 0.0141 ng/mL
